Measured values from different studies.
Compare with care: the assays were run in different laboratories. Several values in a cell are separate wells, animals, samples, runs or records. ± gives the spread as reported.

The PCE/NCE ratio of `Cc1nc2cccc(OCC(C)(C)C(=O)NC(C)C)c2c(N)c1C(=O)O` is reported as 0.83 (male Swiss albino CD-1 mouse, bone marrow; oral, 500 mg/kg, 36 h).
For `Cc1ccc(C)c(OCCCC(C)(C)C(=O)O)c1`, “trough plasma concentration” read 1690 ng/mL (human, plasma; oral, dose not given, day 15 predose, median).
`CCc1cc(C(=O)NC)c2nccc(N3CCc4c(cc(Cn5ccnc5)cc4-c4cn(C)nc4C(F)(F)F)C3=O)c2c1` — result for “serum LDL level”: 0.7 ± 0.09 mmol/L (Sprague Dawley rats; oral, 50 mg/kg once daily, 7 days).
Under “abdominal pain incidence”, `O=C(Nc1cnccc1Cl)N1CCN(Cc2ccc3c(c2)OC(F)(F)O3)CC1` is recorded as 0% (multiple ascending dose; young men; 10 mg, treatment-emergent adverse events).
`CO[C@@H]1[C@H](O)[C@@H](CO)O[C@H]1n1c([N+](=O)[O-])nc2c(=O)[nH]c(N)nc21` — result for “nucleoside remaining fraction”: 0.519 (depurination, RP-HPLC; citrate-phosphate buffer 0.5 mM; 1380 min, pH 5, 37 °C).
Under “device site dermatitis incidence”, `Cc1cc(-c2nccc3c2ccn3CC(=O)Nc2ccc(-c3cnccn3)cn2)ccn1` is recorded as 0% (healthy human volunteers; oral, 40 mg single dose, single ascending dose).
`O=C(O)CCC(=O)O.[2H]C([2H])([2H])Oc1cc(C)c2[nH]ccc2c1CN1CC[C@@H](C2CC2)C[C@H]1c1ccc(C(=O)O)cc1`: “subjects with elevated uric acid” 0% (healthy Chinese subjects; oral, 50 mg, single ascending dose).
For `Cc1c(C(=O)O)ccc2c3n(nc12)[C@@H]1[C@H](C3)N(CC2CC2)[C@@]2(C(=O)Nc3cc(Cl)ccc32)[C@H]1c1cccc(Cl)c1F`, the plasma concentration was 732 nM (female BALB/c nude mice, SJSA-1 xenograft, plasma; oral, 1 mg/kg twice daily, 24 h).
`COc1ccc2c(c1)CN(C(=O)CCN1CCC(Cc3ccccc3)CC1)CC[S@@+]2[O-]` gave a PQ interval of 85 ± 3 ms (telemetry; conscious male beagle dogs; intravenous, NG, 0.5 h).
`CCOC(=O)c1c(NC(=O)CNC(C)C)sc2c1CCCCC2` — result for “brain AUC(0-1 h)”: 227 ng·h/g (mouse, brain; intraperitoneal, 5 mg/kg).
Under “drug-related TEAE incidence”, `C[C@@H](c1ncncc1F)[C@](O)(Cn1cncn1)c1ccc(F)cc1F` is recorded as 0% (refers to: decreased appetite; human; oral, 200 mg).
`Cn1cc(Nc2nccc(-c3ccc4c(c3)CN(C3COC3)CC[C@H]4NC(=O)c3cn(C(C)(C)C)nn3)n2)cn1`: “granulocyte count change” 16.9% (human, whole blood; 300 mg twice daily, day 7; relative to: pre-dose baseline).
`Cc1cc(NC2CCN(C(=O)OC3CCN(C(=O)/C=C/CN(C)C)C3)CC2)n2ncc(C(C)C)c2n1` (stereo not shown): “patients with TEAE” 0% (CTCAE v4.0, refers to: Asthenia; patients with advanced solid tumours; oral, dose not given, all schedules, grade 3 or higher).
Under “dose-normalised AUC(tau) at steady state”, `COc1cc(C(=O)NC2CCN(C)CC2)c(F)cc1Nc1ncc(C(F)(F)F)c(Oc2cccc3c2C(=O)N(C)C3)n1` is recorded as 204 nmol·h/L per mg (human patients, plasma; oral, 25 mg once daily repeated, geometric mean).
With `OCC1=C[C@@H](O)[C@@H]2C=CO[C@@H](O[C@@H]3O[C@H](CO)[C@@H](O)[C@H](O)[C@H]3O)[C@H]12` the accuracy was 85.5% (rat plasma; 8 ng/mL, 2 weeks, -70 °C, post-preparative stability).
`CCN1/C(=C/C(C)=O)Sc2ccc(F)cc21`: “heart rate change” 109 ± 20.9% (cynomolgus monkey; oral, 30 mg/kg, 2 h post-dose; relative to: pre-dose).
`CCO[C@H]1CCN(Cc2c(OC)cc(C)c3[nH]ccc23)[C@H](c2ccc(C(=O)O)cc2)C1` has an unbound Cmax of 1470 ng/mL (human severe hepatic impairment, plasma; oral, 200 mg single dose, mean).
With `CCOc1c([C@H](C)n2nc(C)c3c(N)ncnc32)cc(Cl)c(F)c1[C@@H]1CNC(=O)C1` the ECG observations was 100% (refers to: QTcF change ≤30 ms; previously treated B-cell malignancy; oral, 15 mg once daily, overall population; relative to: baseline).
For `O=C(O)C1=CO[C@@H](O[C@@H]2O[C@H](CO)[C@@H](O)[C@H](O)[C@H]2O)[C@@H]2C(CO)=CC[C@H]12`, the accuracy was 104% (post-procedure stability; rat plasma; 8 ng/mL, 3 h, room temperature).
`C[C@@H](Nc1cc(F)cc(F)c1)c1cc(C(=O)N(C)C)cc2c(=O)cc(N3CCOCC3)oc12`: “patients with related SAE” 0% (CTCAE v4, refers to: muscular weakness; patients with advanced solid tumours; oral, dose not given, phase I dose expansion).
`COc1ccc(-c2c(-c3ccc(C#N)c(F)c3)nc(N3CCC(N)CC3)n(C)c2=O)cc1F`: “discontinuation due to AE” 6% (human patients; oral, dose not given, dose escalation).
`O=C(Nc1nc2cccc(-c3ccc(CN4CCS(=O)(=O)CC4)cc3)n2n1)C1CC1`: “treatment-emergent adverse events” 0% (refers to: body temperature increased; human rheumatoid arthritis patients; oral, 300 mg once daily, 4 weeks, regardless of relatedness).
`C=CCN1CC(=O)N2[C@@H](Cc3ccc(O)cc3F)C(=O)N(Cc3cccc(N4CC(N5CCN(CC)CC5)C4)n3)C[C@@H]2N1C(=O)NCc1ccccc1` — result for “treatment-related adverse events”: 0% (refers to: Vomiting; advanced solid tumour patients; oral, 120 mg twice daily, expansion part, grade ≥3).
The AUC(0-t) of `COc1nnc2ccc(N3CCC(c4ccc(OCCN5CCN(C)C(=O)[C@H]5C)cc4)CC3)nn12` is reported as 0.279 µM·h (patients, plasma; oral, 20 mg twice daily, multiple dose, monotherapy).
Under “patients with adverse event”, `CNC(=O)c1ccc(-c2cnc3ncc(Cc4ccc5ncccc5c4)n3n2)cc1F` is recorded as 0% (refers to: Fatigue; hepatocellular carcinoma patients; oral, 600 mg twice daily, expansion cohort, grade 3-4).
`O=C(O)CN1CCCN2CCN(Cc3ccccc3)CCCN(CC1)Cc1cccc(n1)C2`: “copper(II) complex dissociation half-life” 1.5 h (5 M HCl; 90 °C).
With `Cc1coc([C@H]2C[C@H]3[C@@H](CF)SC(N)=N[C@@]3(c3ccc(F)cc3F)CO2)n1` the brain concentration was 2800 nM (male 129/SVE mouse, brain; subcutaneous, 80 mg/kg, 3 h).
For `COc1cccc(OC)c1-c1cc(C(=O)NC2(C(=O)O)C3CC4CC(C3)CC2C4)nn1-c1ccc(C(=O)N(C)CCCN(C)CCCN(C)C(=O)CN2CCN(CC(=O)[O-])CCN(CC(=O)[O-])CCN(CC(=O)[O-])CC2)cc1C(C)C.[177Lu+3]` (stereo not shown), the tumour-to-pancreas ratio was 63.7 (mouse HT-29 xenograft; 72 h, biodistribution; relative to: tumour over pancreas).
`NCCONC(=O)[C@@H]1CC[C@@H]2CN1C(=O)N2OS(=O)(=O)O` — result for “amount excreted in urine (0-8 h)”: 782 mg (human male, urine; intravenous infusion, 1 g single dose).
`C[Si]1(C)O[Si](C)(C)O[Si](C)(C)O[Si](C)(C)O1` — result for “whole-body biotransformation rate constant”: 0.018 day⁻¹ and 0.009 day⁻¹ and 0.011 day⁻¹ (IVIVE from S9; rainbow trout (Oncorhynchus mykiss)).
For `Oc1ccc(/C=C/c2cc(O)cc(O)c2)cc1`, the HDL cholesterol was 23 mg/dL and 26 mg/dL and 25 mg/dL (rat, azoxymethane-injected, blood at sacrifice; 10 mg/kg).
`CC(F)(F)c1nc2nc(CO)cc(Nc3ccc(S(F)(F)(F)(F)F)cc3)n2n1` gave an AUC(0-inf), metabolite of 214 µg·h/mL (LC-MS/MS; malaria patients, plasma; oral, 800 mg of parent drug).
Under “subjects with hypertriglyceridaemia”, `Cc1nc(-c2ccc(OCC(C)C)c(C#N)c2)sc1C(=O)O` is recorded as 2.6% (healthy Chinese subjects, fasted; oral, 40 mg single dose).
For `CN1C(=O)[C@@H](NC(=O)c2nnc(Cc3ccccc3)[nH]2)COc2cccnc21`, the Tmax was 3 h (healthy human, fasted, plasma; oral, 10 mg single dose, median).
For `CCCCOC(=O)N1CCN(C(=O)[C@H](CP(=O)(O)O)NC(=O)c2cc(N3CC[C@H](OC)C3)nc(-c3ccccc3)n2)CC1`, “change in QTcB interval” read -0.5 ± 20.8 ms (human; subcutaneous, 8 mg, 24 h post-dose; relative to: baseline).
`NC1(C(=O)N[C@@H](CCO)c2ccc(Cl)cc2)CCN(c2nc[nH]c3nccc2-3)CC1`: “incidence of Nausea” 46.7% (metastatic CRPC patients; dose not given, any grade, treatment-related, all doses, added: enzalutamide 160 mg daily).
With `COC(=O)C1=CO[C@@H](O[C@@H]2O[C@H](CO)[C@@H](O)[C@H](O)[C@H]2O)[C@@H]2C(CO)=CC[C@H]12` the accuracy was 93.6% (three freeze-thaw cycles; rat plasma; 1000 ng/mL, -70 °C freeze).
`CC1=C(/C=C\C2=CCC[C@]3(C)[C@@H]([C@H](C)CCCC(C)C)CC[C@@H]23)C[C@@H](O)CC1` gave an endogenous concentration of 25.1 ± 5.2 ng/mg protein (LC-MS; human, epidermis; dose not given).
`O=C(O)c1cc(O)c(O)c(O)c1`: “apparent oral clearance” 207 ± 12.3 L/h (rat, plasma; oral, 500 mg/kg extract).
`N#Cc1ccc2c(c1)[C@H]1CCCN(C(=O)c3ccc4[nH]cnc4c3)[C@H]1C2` — result for “cortisol level change”: -119 nmol/L (human; 20 mg, end of trial; relative to: baseline).
`C[Si](C)(C)O[Si](C)(C)O[Si](C)(C)C` — result for “entropy of phase change”: -0.054 kJ/(mol·K) (1-octanol/air; concentration not given).
The accuracy of `NC(=O)c1cc(Oc2ccc(NC(=O)Nc3ccc(Cl)c(C(F)(F)F)c3)c(F)c2)cc[n+]1[O-]` is reported as 112% (short-term stability; mouse plasma; 75 ng/mL, 8 h, room temperature).
`CC(C)(C(=O)N1CCOc2c(C#N)cncc2C1)C(F)F` — result for “subjects with TEAE”: 0% (refers to: cutaneous vasculitis; human, both sexes; oral, 10 mg once daily, 14 days, multiple ascending dose).
`CC(C)(Sc1ccncc1-c1ccc(C#N)c2ccccc12)C(=O)O` — result for “amount excreted in urine (0-24 h)”: 34.1 µg (human, urine; oral, 2.5 mg, added: febuxostat 20 mg).
`c1ccc2c(c1)c1cccc3ccc4cccc2c4c31`: “literature range of log K” 5.09 to 5.91 log units (PDMS-water partitioning; PAH compilation).
`COc1cc(Nc2ncc3c(n2)-c2ccc(Cl)cc2C(c2c(F)cccc2OC)=NC3)ccc1C(=O)O`: “patients with increased INR” 13% (cancer patients; oral, dose not given, all grades any attribution, added: pembrolizumab).
For `O=C(c1nc2n(n1)[C@H](c1ccccc1)C[C@@H]2F)C1CC1`, the renal clearance was 0.172 mL/min (geometric mean; human, fasted; 75 mg single dose).
Under “heart rate change”, `Cc1c(-c2ccc(N3CCc4cccc(C(=O)Nc5nc6ccccc6s5)c4C3)nc2C(=O)O)cnn1CC12CC3(C)CC(C)(C1)CC(OCCNCC[C@H](O)CO)(C3)C2` is recorded as -16% (beagle dog, male, anaesthetised; intravenous infusion, 0.3 mg/kg/min, 105 (unit not given); relative to: vehicle).
`FC(F)(F)c1ccc(CNc2ccc(Cc3c[nH]c4ncc(Cl)cc34)cn2)cn1` — result for “treatment-related adverse events”: 4% (refers to: face oedema; human, advanced solid tumours, non-TGCT cohort; oral, 1000 mg/day, any grade).
The blood-to-plasma ratio of `C=CC(=O)NC1CCN(c2ncc3ncnc(Nc4ccc(Oc5ccc6c(c5)ncn6C)c(C)c4)c3n2)CC1` is reported as 0.934 (refers to: total radioactivity; healthy male human, whole blood and plasma; oral, 60 mg, 0.5 h, geometric mean).
For `Cc1cnc(N2CC3(CCOCC3)C2)c(C(=O)Nc2ccc(C(=O)N3CCc4cc(C(=O)Nc5c(C)cccc5F)sc4-c4ccccc43)cc2)c1`, the plasma clearance was roughly 75% (dog; intravenous bolus, 0.1 mg/kg; relative to: hepatic blood flow).
For `COC(=O)/C=C/c1cc(C(=O)NCc2ccc(C)cc2)cc(-c2ccc3ncnn3c2)c1`, “remaining parent compound” read roughly 25% (mouse, liver microsomes; 1 µg/mL, 60 min, pH 7.4, 0.5 mg/mL protein, added: NADPH).
`Cc1noc(C)c1-c1cc(C(O)(c2ccccn2)c2ccccn2)c2nc(C3CC3)[nH]c2c1` gave a Ctau of 157 ng/mL (human patients, fasted, plasma; oral, 9 mg once daily, cycle 1 day 8).
`CNCCOC12CC3(C)CC(C)(CC(Cn4ncc(-c5ccc(N6CCc7cccc(C(=O)Nc8nc9ccccc9s8)c7C6)nc5C(=O)O)c4C)(C3)C1)C2` gave a plasma concentration of 0 ng/mL (anaesthetised male beagle dogs; intravenous bolus, 0.03 mg/kg, 120 min).
`c1ccc2cc3c(ccc4ccccc43)cc2c1` — result for “literature range factor”: 6 (polyethylene-water partitioning; PAH compilation; relative to: maximum over minimum K).

Excerpt of the above:
`CCOC(=O)c1c(NC(=O)CNC(C)C)sc2c1CCCCC2` — result for “brain AUC(0-1 h)”: 227 ng·h/g (mouse, brain; intraperitoneal, 5 mg/kg).
`COc1ccc(-c2c(-c3ccc(C#N)c(F)c3)nc(N3CCC(N)CC3)n(C)c2=O)cc1F`: “discontinuation due to AE” 6% (human patients; oral, dose not given, dose escalation).
The PCE/NCE ratio of `Cc1nc2cccc(OCC(C)(C)C(=O)NC(C)C)c2c(N)c1C(=O)O` is reported as 0.83 (male Swiss albino CD-1 mouse, bone marrow; oral, 500 mg/kg, 36 h).
The blood-to-plasma ratio of `C=CC(=O)NC1CCN(c2ncc3ncnc(Nc4ccc(Oc5ccc6c(c5)ncn6C)c(C)c4)c3n2)CC1` is reported as 0.934 (refers to: total radioactivity; healthy male human, whole blood and plasma; oral, 60 mg, 0.5 h, geometric mean).
`Cc1noc(C)c1-c1cc(C(O)(c2ccccn2)c2ccccn2)c2nc(C3CC3)[nH]c2c1` gave a Ctau of 157 ng/mL (human patients, fasted, plasma; oral, 9 mg once daily, cycle 1 day 8).
For `CN1C(=O)[C@@H](NC(=O)c2nnc(Cc3ccccc3)[nH]2)COc2cccnc21`, the Tmax was 3 h (healthy human, fasted, plasma; oral, 10 mg single dose, median).
